Measurements of several laboratories.
Compare with care: the assays were run in different laboratories. Numbers after ± are the reported error.

C=CC(=O)Nc1cc(Nc2nccc(-c3c(-c4ccc(Cl)cc4)n(C)c4ccccc34)n2)c(OC)cc1N(C)CCN(C)C  IC50 (NCI-H1975; cell growth or viability, MTT; 72 h): 0.106 µM
CC1=C2[O][Ru-]([Cl])[O+]=C2C=CN1CCCN1C=CC2=[O+][Ru-]([Cl])[O]C2=C1C.Cc1ccc(C(C)C)cc1.Cc1ccc(C(C)C)cc1  IC50 (KYSE70-oxo oxoplatin-resistant; crystal violet; 96 h): > 20 µM
COC(=O)[C@H]1[C@H]2C[C@H]3O[C@@]4(CCN3C[C@H]2C[C@@H](O)[C@@H]1OC)C(=O)Nc1cc(OC)c(-c2ccc(C(C)(C)C)cc2)cc14  IC50 (NALM-6; cell growth or viability, trypan blue; 72 h): 4.45 µM
COc1ccc([C@@H]2CC(=O)c3c(O)cc(O[C@@H]4O[C@H](CO[C@@H]5O[C@@H](C)[C@H](O)[C@@H](O)[C@H]5O)[C@@H](O)[C@H](O)[C@H]4O)cc3O2)cc1O  IC50 (MRC5; cell growth or viability, trypan blue; 72 h): > 150 µg/mL
S=C(N/N=C/c1ccc(-c2ccccc2)s1)Nc1ccccc1  IC50 (HEL human lung fibroblasts; cell growth): 32.1 µM
CC1(C)CCN(Cc2ccc(C(=O)NC[C@]3(O)CCCN(c4cc(NCc5ccccc5)ncn4)C3)c(O)c2)CC1  IC50 (MOLM-13; UPLC-MS/MS, refers to: mRNA m6A level; 16 h): 7 µM
COc1ccc(/N=N/C(=S)N2CCCCC2)cc1  IC50 (HT-1080; cell growth or viability, resazurin; 48 h): > 50 µM
C=CC(=O)Nc1cc(Nc2nccc(-c3c(-c4cccc(F)c4)n(C)c4ccccc34)n2)c(OC)cc1N(C)CCN(C)C  IC50 (NCI-H1975; cell growth or viability, MTT; 72 h): 0.044 µM
CC1OC(OCC2OC(Oc3cc(O)c4c(=O)cc(-c5ccc(O)c(O)c5)oc4c3)C(O)C(O)C2O)C(O)C(O)C1O (stereo not shown)  IC50 (MDA-MB-231/BCRP BCRP-transfected, multidrug-resistant; cytotoxicity, resazurin reduction; 72 h): > 100 µM
Cl.[Cl][Ru-4]123([n+]4ccccc4-c4cc(-c5ccccc5)cc([n+]41)-c1cccc[n+]12)[n+]1ccc(-c2ccccc2)c2ccc4c(-c5ccccc5)cc[n+]3c4c21  IC50 (HEL 299; cell growth or viability, resazurin; 72 h): 7.56 µM
COCCOCCOCCOc1ccc(/C=C/C2=[N+]3C(=C(c4cc(OC)cc(OC)c4)c4c(C)c(I)c(/C=C/c5ccc(OCCOCCOCCOC)cc5)n4[B-]3(F)F)C(C)=C2I)cc1  IC50 (HEp-2; phototoxicity, CellTiter-Blue; added: light 1.5 J/cm^2): > 100 µM
C=C1[C@@H]([C@@]2(C)C=CC(=O)C(C)(C)[C@@H]2CC(=O)OC)[C@@H](OC(C)=O)[C@H](OC(C)=O)[C@@]2(C)[C@H](c3ccoc3)C[C@H]3O[C@]132  IC50 (HEp-2; cell growth or viability, MTT; 48 h): 68.1 µM
CC1(C)C=Cc2c(O)cc(/C=C/c3ccc(O)cc3O)cc2O1  IC50 (T.Tn; cell growth, MTT; 72 h): 46 µM
CN(C)C1=[S+][Au-2]2([S]1)[c]1ccccc1-c1cccc[n+]12.F[P-](F)(F)(F)(F)F (stereo not shown)  IC50 (UWB1289; cell growth or viability, MTT; 72 h): 2.69 µM
N=C(N/N=C/c1ccccn1)N/N=C/c1ccccn1  IC50 (hTERT-HPNE; cell growth, crystal violet; 72 h): 199 ± 23.8 µM
CC(=O)O[C@@H]1C[C@H]2C(C)(C)[C@H](O)CC[C@]2(C)[C@H]2CC[C@@]3(C)C(=CC[C@H]3[C@@H](C)C[C@@H](O)[C@H](O)C(C)(C)O)[C@@]21C  IC50 (SCM-1; cytotoxicity, MTT): 15.6 ± 3.6 µM
CSc1nc(Nc2cccc(/C(C)=N/NC(=O)c3ccc([N+](=O)[O-])cc3)c2)c(C#N)c(-c2ccccc2)n1  IC50 (HCT-116 and MCF7; cell growth, MTT; range over compound group): 1.14 to 10.3 µM
N#C/C(=C\c1cn(-c2ccccc2)nc1-c1ccccc1)c1nc2ccccc2[nH]1  IC50 (ASPC1; cell growth or viability, ATP luminescence; 72 h): > 100 µM
c1ccc(-c2cn(-c3ccc(-c4cc(-c5ccccn5)nc(-c5ccccn5)c4)cc3)nn2)nc1  IC50 (NHDF normal human fibroblasts; cytotoxicity, MTS; 72 h): > 25 µM
OC[C@H]1[C@@H](O)[C@@H](O)CN1CCc1ccccc1  IC50 (K562-Tax; cell growth or viability, MTS; 72 h): 117 µM
C[S+](C)([O-])[Pt-2]([Cl])([Cl])[N+](=Cc1ccc[nH]1)Cc1ccccc1  IC50 (MCF-12A; cell growth or viability, MTT; 24 h): > 100 µg/mL
C#CCN(C(=O)OCc1ccc(F)cc1)[c-]1cccc1.[Fe+2].c1cc[cH-]c1  IC50 (BL2; cell growth or viability, MTT; 48 h): 18.2 µM
N=C(N/N=C/c1cc2ccccc2c2ccccc12)N/N=C/c1cc2ccccc2c2ccccc12  IC50 (hTERT-HPNE; cell growth, crystal violet; 72 h): 131 ± 10.4 µM
NC[C@@H](C(=O)Nc1ccc(-c2cn[nH]c2)cc1)c1ccccc1  IC50 (HTM; refers to: pMLC2 Ser18/Thr19): 0.0504 µM
Cc1cnn2ccc(-c3ccc4c(c3)CN([C@H]3CCC(=O)NC3=O)C4=O)nc12  IC50 (MOLM-13; cell growth, CellTiter luminescence; 72 h): 0.032 µM
COc1cc(OC)cc(C2=C3C(C)=C(I)C(C)=[N+]3[B-](F)(F)n3c(/C=C/c4c[nH]c5ccccc45)c(I)c(C)c32)c1  IC50 (HEp-2; cell growth or viability, resazurin; 24 h, dark): 148 µM
COc1c(O)c(-c2c(O)c(OC)c(OC)c3c2ccc2cc(O)ccc23)c2c(c1OC)-c1ccc(O)cc1CC2  IC50 (U-87 MG; cell viability, CCK-8; 24 h): 17.1 ± 3.72 µM
CC(C)(C)CC(C)(C)Nc1c(-c2ccc3c(c2)OCO3)nc2cnccn12  IC50 (CT26; cell growth or viability, MTT; 24 h): 40.9 µM
CN1CCC(N[C@@H]2CCc3[nH]c4c(C(N)=O)ccc(-c5ccccc5Cl)c4c3C2)CC1  IC50 (colorectal cancer organoid sample C; cell growth, CellTiter-Glo; 6 days): 0.02 µM
O=C1NCC(Cc2ccccc2)N(CC2CCCN2CC(CC2CCCCC2)N2CC(Cc3ccc(O)cc3)N(CCc3ccccc3)C(=O)C2=O)C1=O (stereo not shown)  IC50 (oligodendrocyte precursor cells; viability; 72 h): > 10 µM
C/C(=N/O)c1ccc(NS(=O)(=O)c2cccc(/C=C/C(=O)NO)c2)cc1  IC50 (MOPC-315; cell growth; 24 h): 2.14 ± 1.25 µM
CCN1CCC2(CC1)C/C(=N\NC(=O)Nc1ccc(C)cc1)c1ccccc1O2  IC50 (MCF7, HCT-116, PC-3, A549; cell growth, MTT; range over cell lines): 5.47 to 39 µM
Cc1ccc(Nc2ccn3ncc(-c4ccc5c(c4)CN([C@H]4CCC(=O)NC4=O)C5=O)c3n2)cc1Cl  IC50 (MOLM-13; cell growth or viability, ATP luminescence; 72 h): 0.239 µM
C=CC(=O)Nc1ccc(F)c(-c2ncnc3[nH]cc(C(=O)OCC)c23)c1  IC50 (mouse CD4 T-cell blasts; STAT1 phosphorylation; added: IFN-gamma): > 1.1 µM
Cc1ccc(C(C)C)cc1.Oc1ccccc1C=NNC1=Nc2ccccc2-c2[nH]c3ccc(Br)cc3c2C1.[Cl-].[Cl][Os+]  IC50 (NCI-N87; cytotoxicity, MTT; 96 h): 1.6 ± 0.3 µM
CCC(C)C1OC(=O)C(C)(C)C(=O)C(Cc2ccccc2)OC(=O)C(C(C)C)OC(=O)C(NC(=O)c2cccc(O)c2)C(C)OC1=O (stereo not shown)  IC50 (HCT-8; cell viability, CCK-8; 72 h): > 20 µM
CC(C)=CCc1c2c(c(O)c3c(=O)c(-c4ccc(O)cc4)coc13)C=CC(C)(C)O2  IC50 (KKU100; cell growth or viability, MTT; 24 h): 21.6 µM
Cc1cc(C#N)cc(C)c1Oc1cc(Nc2ccc(C#N)cc2)nc2ccncc12  IC50 (S102; 48 h): > 128 µM
COc1cc(OC)cc(C2=C3C(C)=C(I)C(C)=[N+]3[B-](F)(F)n3c(/C=C/c4c[nH]c5ccc([N+](=O)[O-])cc45)c(I)c(C)c32)c1  IC50 (HEp-2; cell growth or viability, resazurin; 24 h, dark): > 400 µM
Nc1cnn2ccc(-c3ccc4c(c3)CN([C@H]3CCC(=O)NC3=O)C4=O)nc12  IC50 (MOLM-13; cell growth, CellTiter luminescence; 72 h): > 0.1 µM
COc1c(O)cc2oc3cc4c(c(O)c3c(=O)c2c1CCC(C)C)CC(O)O4 (stereo not shown)  IC50 (BEAS-2B; cell growth or viability): 17.6 µM
Oc1ccc(C(=NNc2ccccc2)c2ccc(O)cc2)cc1  IC50 (SNU-1 (KRAS G12D); cell viability, CellTiter-Glo; 72 h): 26.6 ± 9.9 µM
Cc1nn(-c2ccc(S(=O)(=O)N[C@H](CO)CC(C)C)cc2)c2nn3nnnc3nc12  IC50 (HT-29; cell growth or viability, MTT; 72 h): 0.27 µM
Cc1ccc(CC(=O)N(CCCn2ccnc2)c2nc3ccccc3s2)c(C)c1  IC50 (HCT-116 3D tumour organoids; cytotoxicity; 0.4% DMSO; 72 h, 2% Matrigel): 19.9 µM
Cc1cc2cc(C(=O)N(Cc3ccc(C(F)(F)F)cn3)[C@H](C)c3ncccn3)ccc2nc1N  IC50 (HCT-116 MTAP-deleted; 144 h): 0.04 µM
COC(=O)[C@H]1[C@H]2C[C@H]3O[C@@]4(CCN3C[C@H]2C[C@@H](OC(=O)c2cc(OC)c(OC)c(OC)c2)[C@@H]1OC)C(=O)Nc1cc(OC)c(-c2ccc(C(F)(F)F)cc2)cc14  IC50 (NALM-6; cell growth or viability, trypan blue; 72 h): 1.79 µM
CC(C)c1cccc(C(C)C)c1-n1ccn(-c2c(C(C)C)cccc2C(C)C)c1=[Se].[Cl][Au]  IC50 (H157 lung carcinoma cells; cell viability, MTT; 72 h): 3 ± 0.7 µM
CC(C)=CCC1=C([O-])C(=O)c2ccccc2C1=O.CC(C)=CCC1=C([O-])C(=O)c2ccccc2C1=O.[Cu+2].c1ccc(-c2ccnc3c2ccc2c(-c4ccccc4)ccnc23)cc1  IC50 (A2780R cisplatin-resistant; cell viability, MTT; 24 h): 0.6 ± 0.1 µM
CCNc1cc2c(cc1C)C1(c3cc(C)c(NCC)cc3O2)c2ccccc2C(=O)N1N=Cc1c[c-]c(-c2ccccn2)cc1.Cc1c(C)c(-c2ccc(-c3ccccc3)cc2)[c-](C)c1C.[Cl-].[Ir+3]  IC50 (BEAS-2B; cell growth, MTT; 24 h): 20 ± 0.7 µM
C=C(C)C(=O)Nc1ccc(-c2c(-c3ccc(Oc4cccc(C)n4)cc3)c3c(N)ncnc3n2C)cc1  IC50 (JMSU-1; cell growth or viability, ATP luminescence; 96 h): 0.4 µM
O=C(/C=C/c1cccc(S(=O)(=O)Nc2ccc(F)cc2)c1)NO  IC50 (MOPC-315; cell growth; 24 h): 0.312 ± 0.114 µM
CC#N.[Ru+2].c1ccc(-c2cccc(-c3ccccn3)n2)nc1.c1ccc(-c2ccccn2)nc1  IC50 (HL-60; cell viability; added: light 22 J/cm^2): > 100 µM
N=C(N/N=C/c1ncc[nH]1)N/N=C/c1ncc[nH]1  IC50 (hTERT-HPNE; cell growth, crystal violet; 72 h): 258 ± 33.5 µM
O=[N+]([O-])c1ccc(NC(=S)N/N=C/c2cccs2)cc1  IC50 (HEL human lung fibroblasts; cell growth): 3.2 µM
COc1ccc(NC(=O)c2ccc(NC(=O)CN3C(=O)S/C(=C\c4ccccc4OC)C3=O)cc2)cc1  IC50 (HT-29, A549, HCT-116; cell growth, MTT; range over cell lines): 9.17 to 47.2 µM
